Measurements of several laboratories.
Compare with care: the assays were run in different laboratories.
Chain of UniProt Q86Z02 (whole entry, looked up): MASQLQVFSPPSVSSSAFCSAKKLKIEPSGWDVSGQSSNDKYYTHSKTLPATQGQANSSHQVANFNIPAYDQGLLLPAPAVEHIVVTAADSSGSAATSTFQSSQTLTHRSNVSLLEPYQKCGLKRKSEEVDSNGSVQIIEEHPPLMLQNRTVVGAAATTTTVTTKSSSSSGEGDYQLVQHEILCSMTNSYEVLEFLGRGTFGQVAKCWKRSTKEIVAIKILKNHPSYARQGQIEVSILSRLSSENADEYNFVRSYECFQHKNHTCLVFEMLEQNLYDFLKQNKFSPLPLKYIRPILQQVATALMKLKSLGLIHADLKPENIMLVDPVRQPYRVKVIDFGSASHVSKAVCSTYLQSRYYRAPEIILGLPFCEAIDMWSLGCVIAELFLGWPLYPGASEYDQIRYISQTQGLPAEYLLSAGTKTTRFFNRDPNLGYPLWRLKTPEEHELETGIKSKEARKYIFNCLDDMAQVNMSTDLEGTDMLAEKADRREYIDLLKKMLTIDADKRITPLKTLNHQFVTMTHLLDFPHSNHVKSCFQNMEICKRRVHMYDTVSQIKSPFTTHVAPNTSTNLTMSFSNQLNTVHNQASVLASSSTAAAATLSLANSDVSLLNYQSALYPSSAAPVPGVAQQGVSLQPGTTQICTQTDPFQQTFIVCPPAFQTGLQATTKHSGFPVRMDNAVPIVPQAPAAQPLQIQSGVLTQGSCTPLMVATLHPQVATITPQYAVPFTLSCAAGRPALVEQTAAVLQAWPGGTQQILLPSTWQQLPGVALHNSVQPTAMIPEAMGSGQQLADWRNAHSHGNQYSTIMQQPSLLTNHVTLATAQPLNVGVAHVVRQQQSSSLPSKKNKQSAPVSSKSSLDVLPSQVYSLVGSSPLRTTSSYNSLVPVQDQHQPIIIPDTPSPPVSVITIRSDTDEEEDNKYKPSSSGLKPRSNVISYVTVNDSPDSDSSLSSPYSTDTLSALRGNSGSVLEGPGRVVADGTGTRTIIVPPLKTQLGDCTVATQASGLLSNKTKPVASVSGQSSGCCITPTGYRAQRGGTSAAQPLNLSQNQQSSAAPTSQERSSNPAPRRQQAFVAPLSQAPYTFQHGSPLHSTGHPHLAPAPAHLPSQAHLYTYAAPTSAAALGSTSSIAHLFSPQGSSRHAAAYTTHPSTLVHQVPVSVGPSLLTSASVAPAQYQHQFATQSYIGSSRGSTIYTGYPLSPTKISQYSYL
Chain of UniProt P06401 (whole entry, looked up): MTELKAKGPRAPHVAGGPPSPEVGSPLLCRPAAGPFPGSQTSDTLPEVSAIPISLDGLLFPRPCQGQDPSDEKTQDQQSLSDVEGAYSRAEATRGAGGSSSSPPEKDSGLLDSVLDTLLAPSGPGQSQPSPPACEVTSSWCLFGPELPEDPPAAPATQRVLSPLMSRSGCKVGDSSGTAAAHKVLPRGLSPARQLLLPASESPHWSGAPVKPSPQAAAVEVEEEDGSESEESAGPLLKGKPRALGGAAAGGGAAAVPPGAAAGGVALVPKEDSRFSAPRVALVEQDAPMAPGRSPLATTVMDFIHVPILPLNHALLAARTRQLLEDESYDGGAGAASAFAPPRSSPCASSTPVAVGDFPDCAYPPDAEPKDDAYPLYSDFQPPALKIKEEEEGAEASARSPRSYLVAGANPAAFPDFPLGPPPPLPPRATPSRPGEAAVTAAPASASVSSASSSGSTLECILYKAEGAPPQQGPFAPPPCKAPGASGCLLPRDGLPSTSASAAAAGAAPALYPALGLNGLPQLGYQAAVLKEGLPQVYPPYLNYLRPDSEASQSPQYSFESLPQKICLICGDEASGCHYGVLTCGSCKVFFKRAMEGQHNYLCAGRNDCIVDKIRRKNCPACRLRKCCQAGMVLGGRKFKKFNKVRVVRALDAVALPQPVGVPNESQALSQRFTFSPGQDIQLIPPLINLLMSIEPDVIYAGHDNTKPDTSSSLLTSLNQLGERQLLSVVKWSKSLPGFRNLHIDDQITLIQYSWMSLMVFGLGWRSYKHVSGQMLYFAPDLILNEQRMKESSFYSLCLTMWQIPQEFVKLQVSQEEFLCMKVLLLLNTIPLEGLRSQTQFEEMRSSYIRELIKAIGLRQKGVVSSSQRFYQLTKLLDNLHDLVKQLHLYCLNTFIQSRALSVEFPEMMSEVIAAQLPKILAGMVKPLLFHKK
Chain of UniProt Q00535 (whole entry, looked up): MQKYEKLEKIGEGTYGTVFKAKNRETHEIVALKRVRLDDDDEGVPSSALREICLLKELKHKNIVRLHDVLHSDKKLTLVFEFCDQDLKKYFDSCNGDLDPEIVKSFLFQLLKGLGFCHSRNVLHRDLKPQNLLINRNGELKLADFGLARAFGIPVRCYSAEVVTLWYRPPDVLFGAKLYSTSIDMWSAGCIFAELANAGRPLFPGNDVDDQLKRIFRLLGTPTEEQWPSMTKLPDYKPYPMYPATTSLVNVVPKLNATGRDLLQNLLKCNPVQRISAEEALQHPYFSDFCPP
Chain of UniProt P32239 (whole entry, looked up): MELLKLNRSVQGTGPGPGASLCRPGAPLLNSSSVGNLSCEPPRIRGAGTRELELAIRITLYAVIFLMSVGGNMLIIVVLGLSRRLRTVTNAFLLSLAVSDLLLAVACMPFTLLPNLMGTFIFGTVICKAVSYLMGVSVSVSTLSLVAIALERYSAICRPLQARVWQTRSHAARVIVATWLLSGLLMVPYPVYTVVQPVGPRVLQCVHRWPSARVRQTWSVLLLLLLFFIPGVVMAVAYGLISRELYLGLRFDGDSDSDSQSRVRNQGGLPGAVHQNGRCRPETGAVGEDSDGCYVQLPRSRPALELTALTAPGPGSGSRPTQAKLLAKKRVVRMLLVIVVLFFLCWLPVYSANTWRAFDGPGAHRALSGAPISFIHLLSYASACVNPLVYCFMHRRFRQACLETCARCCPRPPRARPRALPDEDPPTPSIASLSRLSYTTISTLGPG
Chain of UniProt P32198 (whole entry, looked up): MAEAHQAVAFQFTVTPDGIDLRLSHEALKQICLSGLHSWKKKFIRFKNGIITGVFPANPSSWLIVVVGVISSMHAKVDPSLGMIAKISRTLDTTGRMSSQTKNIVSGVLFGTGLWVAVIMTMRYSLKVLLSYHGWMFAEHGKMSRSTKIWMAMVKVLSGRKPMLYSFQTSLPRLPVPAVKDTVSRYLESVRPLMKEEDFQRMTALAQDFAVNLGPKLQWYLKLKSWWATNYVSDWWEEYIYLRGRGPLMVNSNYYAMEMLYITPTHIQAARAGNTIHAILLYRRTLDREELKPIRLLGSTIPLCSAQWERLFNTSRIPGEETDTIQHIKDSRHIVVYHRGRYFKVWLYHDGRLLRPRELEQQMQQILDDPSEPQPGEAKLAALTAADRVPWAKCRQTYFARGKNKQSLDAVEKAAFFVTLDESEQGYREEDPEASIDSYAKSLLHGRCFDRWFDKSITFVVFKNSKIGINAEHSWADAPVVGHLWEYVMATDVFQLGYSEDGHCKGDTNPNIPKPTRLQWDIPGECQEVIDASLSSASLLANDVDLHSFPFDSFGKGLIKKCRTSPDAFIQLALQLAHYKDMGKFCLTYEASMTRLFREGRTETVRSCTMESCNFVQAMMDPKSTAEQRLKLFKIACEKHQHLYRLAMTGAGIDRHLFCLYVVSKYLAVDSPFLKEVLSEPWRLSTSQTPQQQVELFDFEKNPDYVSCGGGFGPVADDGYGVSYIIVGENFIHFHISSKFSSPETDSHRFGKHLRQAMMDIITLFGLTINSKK
Chain of UniProt Q15375 (whole entry, looked up): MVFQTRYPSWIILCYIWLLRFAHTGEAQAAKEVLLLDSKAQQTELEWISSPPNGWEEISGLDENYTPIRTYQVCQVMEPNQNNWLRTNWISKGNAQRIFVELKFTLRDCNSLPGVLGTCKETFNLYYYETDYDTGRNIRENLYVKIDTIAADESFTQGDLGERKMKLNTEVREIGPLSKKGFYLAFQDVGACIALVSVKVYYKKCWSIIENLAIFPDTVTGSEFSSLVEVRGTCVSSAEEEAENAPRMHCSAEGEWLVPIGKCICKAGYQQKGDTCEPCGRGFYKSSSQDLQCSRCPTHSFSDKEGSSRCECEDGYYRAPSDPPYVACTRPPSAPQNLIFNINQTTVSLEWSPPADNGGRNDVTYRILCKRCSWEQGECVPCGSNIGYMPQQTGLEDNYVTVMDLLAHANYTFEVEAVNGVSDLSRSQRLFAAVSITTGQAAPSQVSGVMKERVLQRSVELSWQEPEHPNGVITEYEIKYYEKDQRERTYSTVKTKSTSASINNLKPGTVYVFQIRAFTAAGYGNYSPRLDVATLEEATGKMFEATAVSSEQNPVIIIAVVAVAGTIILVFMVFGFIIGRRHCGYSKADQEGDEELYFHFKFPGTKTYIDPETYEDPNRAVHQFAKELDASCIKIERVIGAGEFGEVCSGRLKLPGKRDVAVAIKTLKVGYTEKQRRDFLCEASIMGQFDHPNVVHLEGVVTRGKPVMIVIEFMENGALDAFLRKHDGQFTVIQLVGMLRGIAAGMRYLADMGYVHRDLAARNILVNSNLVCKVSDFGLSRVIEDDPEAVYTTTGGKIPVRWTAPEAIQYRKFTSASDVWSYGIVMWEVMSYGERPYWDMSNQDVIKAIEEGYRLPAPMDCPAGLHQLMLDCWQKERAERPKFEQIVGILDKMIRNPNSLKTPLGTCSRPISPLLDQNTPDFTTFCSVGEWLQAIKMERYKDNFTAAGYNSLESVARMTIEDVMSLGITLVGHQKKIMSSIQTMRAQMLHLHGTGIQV
Chain of UniProt P46663 (whole entry, looked up): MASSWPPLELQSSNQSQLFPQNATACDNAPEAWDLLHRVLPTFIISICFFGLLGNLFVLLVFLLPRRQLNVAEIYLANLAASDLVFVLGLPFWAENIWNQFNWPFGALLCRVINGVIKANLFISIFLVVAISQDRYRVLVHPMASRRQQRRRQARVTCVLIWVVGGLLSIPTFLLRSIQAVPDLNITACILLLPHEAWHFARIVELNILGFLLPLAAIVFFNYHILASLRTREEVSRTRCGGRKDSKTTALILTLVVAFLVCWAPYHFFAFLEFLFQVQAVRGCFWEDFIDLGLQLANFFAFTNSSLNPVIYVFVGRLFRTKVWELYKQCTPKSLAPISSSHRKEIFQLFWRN

CC(N)C(=O)OC(C)(C)Cc1ccc(Cl)cc1 (stereo not drawn)  IC50 (Plasmodium falciparum; 7G8): 7.94 µM
CN(CCN1CCC(OC(=O)Nc2ccccc2-c2ccccc2)CC1)C(=O)c1ccc(CN2CCC(C(N)=O)CC2)cc1  inhibition (phosphodiesterase I; enzyme activity; 1 µM): 3%
CN1CCN(c2cc(-c3ccncc3)c(-c3ccc4ccccc4c3)nn2)CC1  inhibition (CCKBR (Homo sapiens, UniProt P32239); antagonist, FLIPR; 10 µM): -3.6%
CN(C(=O)n1cnc(-c2ccc[n+]([O-])c2)c1)C1CCCCC1  inhibition (Carnitine O-palmitoyltransferase 1, liver isoform (Rattus norvegicus, UniProt P32198); enzyme activity; 10 µM): -12%
FC(F)(F)c1cccc(Nc2nc(NCCOc3ccccc3)nc3[nH]cnc23)c1  inhibition (Cyclin-dependent kinase 5, with p25 (CDK5, Homo sapiens, UniProt Q00535); Z'-LYTE or Adapta; 5 µM): 10%
COc1ccc(N2C(=O)N(c3c(C)cccc3Cl)Cc3cnc(Nc4ccc(C5CCN(C)CC5)cc4OC)nc32)nc1  inhibition (EPHA7 (Homo sapiens, UniProt Q15375); kinase activity; 0.5 µM): 5.52%
COCc1c(-c2cc3cc(C)cc(OC)c3s2)c2c(N)ncnn2c1CN1CCNC(=O)C1  inhibition (PGR (Homo sapiens, UniProt P06401); binding, radioligand binding; 10 µM): 27%
Cc1ncc(C)n2nc(/C=C/c3nc(N4CCCC4)cc(N4CCOCC4)n3)nc12  inhibition (sodium channel site 2; radioligand binding; 10 µM): 4%
CN(C)c1ccc(/N=N/c2ccc(Cl)cc2)cc1  IC50 (Gag-Pol polyprotein, integrase (gag-pol, Human immunodeficiency virus 1, UniProt P12497); 3'-processing activity, inhibitor; wild-type integrase): > 100 µM
C[C@H]1c2cccc(O)c2C(=O)C2=C(O)[C@]3(O)C(=O)C(C(N)=O)=C(O)[C@@H](N(C)C)[C@@H]3[C@@H](O)[C@@H]21  IC50 (Plasmodium falciparum; 7G8): 3.98 µM
O=C(Nc1cnccc1Cl)N1CCN(Cc2ccc3c(c2)OC(F)(F)O3)CC1  inhibition (BDKRB1 (Homo sapiens, UniProt P46663); binding; 10 µM, together with: [3H][des-Arg10]kallidin): 16%
COc1cc(Nc2ncc(F)c(Nc3ccc4c(n3)NC(=O)C(C)(C)O4)n2)cc(OC)c1OC  inhibition (HIPK1 (Homo sapiens, UniProt Q86Z02); KINOMEscan; 10 µM): 65%

A few entries again:
FC(F)(F)c1cccc(Nc2nc(NCCOc3ccccc3)nc3[nH]cnc23)c1  inhibition (Cyclin-dependent kinase 5, with p25 (CDK5, Homo sapiens, UniProt Q00535); Z'-LYTE or Adapta; 5 µM): 10%
O=C(Nc1cnccc1Cl)N1CCN(Cc2ccc3c(c2)OC(F)(F)O3)CC1  inhibition (BDKRB1 (Homo sapiens, UniProt P46663); binding; 10 µM, together with: [3H][des-Arg10]kallidin): 16%
